Assay results of several laboratories.
Each line is one published result; not all experiments were run side by side. ± gives the spread as reported.
MAPK14: Mitogen-activated protein kinase 14 (MAPK14, Homo sapiens, UniProt Q16539)
CXCR4: C-X-C chemokine receptor type 4 (CXCR4, Homo sapiens, UniProt P61073)
T1: RNA aptamer A13U; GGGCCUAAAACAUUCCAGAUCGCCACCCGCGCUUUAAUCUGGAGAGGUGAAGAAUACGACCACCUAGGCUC
T2: RNA aptamer GAA^A junction to UUC^G; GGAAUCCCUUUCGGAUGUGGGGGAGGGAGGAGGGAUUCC

SMILES | target | assay | test system | conditions | how to read | endpoint | result
CCNc1nc2c(c(=O)[nH]1)[n+](C)cn2[C@@H]1O[C@H](COP(=O)(O)OP(=O)(O)OP(=O)(O)OC[C@H]2O[C@@H](n3cnc4c(=O)[nH]c(N)nc43)[C@H](O)[C@@H]2O)[C@@H](O)[C@H]1O | m7GpppX diphosphatase (dcs-1, Caenorhabditis elegans, UniProt G5EFS4) | decapping, substrate, HPLC |  | concentration not given |  | initial hydrolysis rate | 6.27 ± 0.36 µM/min
COc1cccc(OC)c1C(=O)N1CCN(Cc2ccccn2)CC1 | MAPK14 | enzyme activity |  |  |  | ligand efficiency | 0.15
CCCCCCCC(=O)Nc1ccc(OC)nc1C | CES1 (Homo sapiens, UniProt P23141) | enzyme activity, substrate |  | pH 8, 37 °C, substrate 3.13 to 100 µM |  | Km | 25 µM
Cc1cc(=O)oc2cc(NC(=O)CCCCCCC(=O)NO)ccc12 | HDAC8 (Homo sapiens, UniProt Q9BY41) | ITC | Tris-HCl buffer | pH 7.5, 25 °C |  | ΔG | -8.6 ± 0.2 kcal/mol
C=C1CN(S(=O)(=O)c2ccc(C)cc2)CCCN(Cc2ccccc2)CCCN(S(=O)(=O)c2ccc(C)cc2)C1 | Inactive tyrosine-protein kinase 7 (PTK7, Homo sapiens, UniProt Q13308) | SILAC mass spectrometry | SUP-T1, crude membrane fraction | 10 µM, 17 h, forward labelling | reference: DMSO over compound | protein level ratio | 2.39
CC(=O)N[C@@H](CC(=O)O)C(=O)N[C@H]1CSSC[C@@H](C(=O)N[C@H](C(=O)N[C@@H](Cc2ccccc2)C(=O)N[C@@H](Cc2c[nH]cn2)C(N)=O)[C@@H](C)O)NC(=O)[C@H](Cc2c[nH]c3ccccc23)NC(=O)[C@H](C(C)C)NC(=O)[C@H](CC(C)C)NC(=O)[C@H](CCC(=O)O)NC(=O)CNC(=O)[C@H](C(C)(C)C)NC(=O)[C@H](Cc2c[nH]cn2)NC(=O)[C@H](Cc2ccc(O)cc2)NC(=O)[C@H](C)NC1=O | Immunoglobulin heavy constant gamma 1 (IGHG1, Homo sapiens, UniProt P01857) | binding, ITC |  | 25 °C, added: Herceptin |  | ΔG | -9.2 kcal/mol
CC(=O)NCCN(CC(=O)NCCN(CC(=O)NCCN(CC(=O)NCCC(N)=O)C(=O)C[C@@H](N)CCCNC(=N)N)C(=O)C[C@@H](N)Cc1ccccc1)C(=O)C[C@@H](N)Cc1ccccc1 | HIV-1 TAR RNA |  |  | extrapolated to 1 M KCl |  | non-electrostatic ΔG° | -7.983 ± 0.0478 kcal/mol
Cc1ccc(N2C(=O)c3ccccc3NC23C(=O)N(C)c2ccc(Br)cc23)cc1 (centres unmarked) | LNPEP (Homo sapiens, UniProt Q9UIQ6) | enzyme activity, inhibitor | HEK293 overexpressing IRAP, membranes | added: L-Leu-pNA | reference: CHO-cell IRAP over HEK293 IRAP, higher = more loss on human IRAP | potency ratio | 10 to 15 fold
COCCO[C@H]1CC[C@H](Nc2cc(=O)n(C)c3ccc(-c4cncs4)cc23)CC1 | CD38 (Homo sapiens, UniProt P28907) | cyclase activity, fluorometric |  | 50 nM, added: NGD+ substrate | reference: untreated | remaining activity | 95.7 ± 6.1%
CC(=O)NCCN(CC(=O)NCCN(CC(=O)NCCN(CC(=O)NCCC(N)=O)C(=O)C[C@@H](N)CCCNC(=N)N)C(=O)C[C@@H](N)CCCNC(=N)N)C(=O)C[C@@H](N)Cc1ccccc1 | HIV-1 TAR RNA |  |  | extrapolated to 1 M KCl |  | non-electrostatic ΔG° | -7.337 ± 0.0717 kcal/mol
CCCCCC[N+](CCCCCC)(CCCCCC)CCCCCC | Kcnk2 (Rattus norvegicus, UniProt Q920B6) | ion current, blocker, inside-out patch clamp |  | 5 µM |  | unblocking time constant | 168 ± 17 ms
CO.COc1ccc2c(c1)c(CC(=O)[O-])c(C)n2C(=O)c1ccc(Cl)cc1.COc1ccc2c(c1)c(CC(=O)[O-])c(C)n2C(=O)c1ccc(Cl)cc1.O.[Co+2].c1ccc(Nc2ccccn2)nc1 | calf thymus DNA | cyclic voltammetry | DMSO/buffer | Co(II)/Co(I) couple | reference: without DNA | cathodic peak potential shift | 3 mV
CC(=O)NCCN(CC(=O)NCCN(CC(=O)NCCN(CC(=O)NCCC(N)=O)C(=O)[C@@H](N)CCCNC(=N)N)C(=O)[C@@H](N)CCCNC(=N)N)C(=O)[C@@H](N)Cc1ccccc1 | HIV-1 TAR RNA |  |  | 25 °C |  | binding free energy ΔG° | -8.6 ± 0.454 kcal/mol
C=C[C@]12CCC(=O)C=C1CC[C@H]1[C@@H]3CC[C@H](C(C)=O)[C@@]3(C)CC[C@@H]12 | Membrane progesterone receptor epsilon (Paqr9, Mus musculus, UniProt Q6TCG2) | pPKA/PKA immunoblot | MDA-MB-231 expressing Paqr9-GFP | 300 nM, 20 min | reference: control | PKA activation | 170 ± 15.8%
CNC(=O)C[C@H](Cc1ccc(C#N)cc1)NC(=O)c1cc(-c2ccc(CN[C@H](C)c3ccc(C)cc3)o2)ccc1Cl | ATPase family AAA domain-containing protein 2, bromodomain (ATAD2, Homo sapiens, UniProt Q6PL18) | binding, TR-FRET competition |  | concentration not given, added: H4K12ac peptide |  | activity | inactive
CN1C(=O)[C@@H](Cc2ccc(O)cc2)NC(=O)CNC(=O)[C@H](Cc2ccc3ccccc3c2)NC(=O)[C@H](CCCNC(=N)N)NC(=O)[C@H]1CCCNC(=O)c1ccc(CNC(=O)CN2CCN(CC(=O)O)CCN(CC(=O)O)CCN(CC(=O)O)CC2)cc1 [gallium-68 labelled] | CXCR4 | PET/CT | human, left adrenal lateral limb nodule | 170 MBq, 60 min |  | SUVmax | 11
CNc1ccccc1C(=O)O[C@H]1C[C@H](n2cnc3c(N)ncnc32)O[C@@H]1COP(=O)(O)OP(=O)(O)O | Unconventional myosin-Va (Gallus gallus, UniProt Q02440, D297C/G292C/I296C/S293C/V295G) | stopped-flow FRET, linear fit intercept |  | 15 °C, added: EDTA 4 mM |  | dissociation rate constant | 37.6 ± 1.06 s⁻¹
N=C(N)NCCC[C@H](NC(=O)[C@H](Cc1ccccc1)NC(=O)[C@@H](N)CO)C(=O)N[C@@H](CC(N)=O)C(N)=O | NPSR1 (Homo sapiens, UniProt Q6W5P4) | calcium mobilization, agonist | CHO-Galpha16 | unit not given | reference: maximal assay window | maximal response | 1
Cc1ccnc(-c2cc(C(=O)NCCCCn3cc(CN(CC(N)=O)C(=O)CN(CCCCN)C(=O)CN(CCCCN)C(=O)CN(CC(C)C)C(=O)CN(CCCCN)C(=O)CN(Cc4ccc5c(c4)OCO5)C(=O)CN(C(=O)CN(CCCCN)C(=O)CN(CC(C)C)C(=O)CNCCCCN)C(C)c4ccccc4)nn3)ccn2)c1 (centres unmarked) | recombinant luciferase |  |  | concentration not given, irradiated 10 min |  | luciferase activity | no effect
CN(C)[C@@H]1C(=O)C(C(N)=O)=C(O)[C@@]2(O)C(=O)C3=C(O)c4c(O)cccc4[C@@](C)(O)[C@H]3C[C@@H]12 | T1, RNA aptamer A13U | fluorescence titration |  | pH 7.5, 25 °C, MgCl2 10 mM |  | Kd | 222 nM
CSCC[C@H](NC(=O)[C@H](CO)NC(=O)[C@H](CC(N)=O)NC(=O)[C@H](CC(C)C)NC(=O)[C@H](CO)NC(=O)[C@H](CCCCN)NC(=O)CNC(=O)[C@H](CCCCN)NC(=O)[C@H](CC(=O)O)NC(=O)[C@H](Cc1c[nH]cn1)NC(=O)[C@H](CC(C)C)NC(=O)[C@H](CC(C)C)NC(=O)[C@H](CCC(N)=O)NC(=O)[C@H](Cc1c[nH]cn1)NC(=O)[C@H](CCC(=O)O)NC(=O)[C@H](CO)NC(=O)[C@@H](NC(=O)[C@H](C)N)C(C)C)C(=O)N[C@@H](CCC(=O)O)C(=O)N[C@@H](CCCNC(=N)N)C(=O)N[C@H](C(=O)N[C@@H](CCC(=O)O)C(=O)N[C@@H](Cc1c[nH]c2ccccc12)C(=O)N[C@@H](CC(C)C)C(=O)N[C@@H](CCCNC(=N)N)C(=O)N[C@@H](CCCCN)C(=O)N[C@@H](CCCCN)C(=O)N[C@@H](CC(C)C)C(=O)N[C@@H](CCC(N)=O)C(=O)N[C@@H](CC(=O)O)C(=O)N[C@H](C(=O)N[C@@H](Cc1c[nH]cn1)C(=O)N[C@@H](CC(N)=O)C(=O)N[C@@H](Cc1ccccc1)C(=O)N[C@@H](CCCCNC(=O)c1ccc2c(c1)C1(OC2=O)c2ccc(N(C)C)cc2Oc2cc(N(C)C)ccc21)C(N)=O)C(C)C)C(C)C | PTH1R (Homo sapiens, UniProt Q03431) | cAMP formation, agonist, GloSensor | HEK293 GP2.3 |  | reference: (1-34) | Emax | 97 ± 6%
NC(=O)C1CCNC(=O)C(Cc2ccc([N+](=O)[O-])cc2)NC(=O)C(Cc2ccco2)NC(=O)C(CC2CC2)NC(=O)C=CC(=O)N1 (centres unmarked) | MAPK14 | DNA-templated library selection |  | one selection round |  | enrichment factor | 1.7
CN1C=C/C(=C/C=C/c2sc3ccccc3[n+]2CC(=O)NCCOCCOCCOCCNC(=O)CCCC[C@@H]2SC[C@@H]3NC(=O)N[C@@H]32)c2ccccc21 | T2, RNA aptamer GAA^A junction to UUC^G | fluorescence titration |  |  |  | binding | binds weakly
Cc1sc2nc[nH]c(=O)c2c1C | GAK (Homo sapiens, UniProt O14976) | binding, weak affinity chromatography-MS |  | flow 20 µL/min | higher = stronger binding | adjusted retention time | 47 min
CCOc1ccccc1-c1nnc2n1N=C(c1ccc(O)cc1)CS2 | CXCR4 | β-arrestin recruitment, agonist | U2OS |  |  | Emax | 96%
[3H]C([3H])([3H])c1cnccc1CN1C[C@@H](c2cc(F)c(F)c(F)c2)CC1=O | SV2A (Homo sapiens, UniProt Q7L0J3) | radioligand binding | human Alzheimer disease, temporal cortex P2 fraction | 5 nM | reference: control brains | loss of specific binding | ~50.7%

Excerpt of the above:
SMILES | target | assay | test system | conditions | how to read | endpoint | result
CN1C(=O)[C@@H](Cc2ccc(O)cc2)NC(=O)CNC(=O)[C@H](Cc2ccc3ccccc3c2)NC(=O)[C@H](CCCNC(=N)N)NC(=O)[C@H]1CCCNC(=O)c1ccc(CNC(=O)CN2CCN(CC(=O)O)CCN(CC(=O)O)CCN(CC(=O)O)CC2)cc1 [gallium-68 labelled] | CXCR4 | PET/CT | human, left adrenal lateral limb nodule | 170 MBq, 60 min |  | SUVmax | 11
CNc1ccccc1C(=O)O[C@H]1C[C@H](n2cnc3c(N)ncnc32)O[C@@H]1COP(=O)(O)OP(=O)(O)O | Unconventional myosin-Va (Gallus gallus, UniProt Q02440, D297C/G292C/I296C/S293C/V295G) | stopped-flow FRET, linear fit intercept |  | 15 °C, added: EDTA 4 mM |  | dissociation rate constant | 37.6 ± 1.06 s⁻¹
N=C(N)NCCC[C@H](NC(=O)[C@H](Cc1ccccc1)NC(=O)[C@@H](N)CO)C(=O)N[C@@H](CC(N)=O)C(N)=O | NPSR1 (Homo sapiens, UniProt Q6W5P4) | calcium mobilization, agonist | CHO-Galpha16 | unit not given | reference: maximal assay window | maximal response | 1
